Assay results from different studies.
Every numbered part comes from another study and shows a few of its results, in no order.

Set 1
Target: Sal-like protein 4, full length isoform B (SALL4, Homo sapiens, UniProt Q9UJQ4-2, residues 1-616)
Method: universal PBM
Molecule type: double-stranded DNA, one strand shown
Medium: in vitro
Tested at: not given
Notes: 8-mer, flanks averaged, mean of replicates
Reading: higher = stronger binding
Strand	E-score
CGTTTTCA	-0.0165
TACACTGA	0.0982
AAACCTCA	-0.0243
CAACTAGA	0.115
TAGTCTAA	-0.0226
ACGACTAT	0.166
ACGAGAAT	0.136
GGTGAGAA	-0.0157
AACGTGCT	-0.0753
AGCACTCC	-0.0879
CGCGCAAA	0.0045
TGACTACA	0.224
AAAATCAG	0.0459
AGGGTGCA	-0.149
CCCCTCCA	-0.149
ATGAGTAC	0.208
AGAGACAC	-0.0983
ATCGCGCA	-0.0339
CGGATACC	-0.0849
ACAGAAAT	0.284
CTGTGAAG	-0.0565
ATAGGGAG	0.00271
ATTTGAGG	0.0784
GGTATAGA	0.142
AGTATGGC	-0.143

Set 2
Target: Interferon regulatory factor 5, full length, phosphomimetic (IRF5, Homo sapiens, UniProt Q13568-2, residues 1-514, S451D/S453D/S456D/S462D)
Method: protein-binding microarray
Molecule type: double-stranded DNA, one strand shown
Medium: in vitro
Tested at: 940 nM top
Notes: 60-bp whole probe
With: salmon DNA 0.4 mg/ml
Baseline: random background probes
Reading: higher = stronger binding
Shared flanks, not repeated: GCCTAGCAC … GTCTTGATTCGCTTGACGCTGCTG
Strand	fitted relative affinity [z-score]
GACGGTCTCGGTATCGGTACGTGCTAG	6.04
TCAATTTTCAATTCCTGACTGTGCTAG	0.197
AGGACCATCTCATATAAATAGGTGCTA	0.479
TCATTTTTACTTTCTGAACTGTGCTAG	1.8
GACTGTTTCCTTTTCCTGACGTGCTAG	1.79
GACGCTCTCCTACTGCTGACGTGCTAG	0.237
TTAGGTATCCTTTACCTTTAGTGCTAG	0.367
GTAGGTTTCCTTTCCCTTTAGTGCTAG	1.99
GGCGATCTCAGTATCGAGACGTGCTAG	2.58
GGCGATCTCAGACTGGAGACGTGCTAG	-0.49
TTAGATCTCAGGTTCGATTAGTGCTAG	0.237
TCAACTAGCGGGTCTTGCACTGTGCTA	-0.0571
TTTTTTATCAATCATTTTCGTGTGCTA	1.63
GGAGGCCTCTTCATTCATTAAGTGCTA	-0.00952
GAAGGACTGGGTCTCGGGACGTGCTAG	-0.323
TCAGTCCTGGCTTTGACACTGTGCTAG	-0.407
GACGATTTCAGGTATCGAGACGTGCTA	1.2
TAAGATATCAGTTTCGATTAGTGCTAG	8.06

Set 3
Target: RNA binding protein fox-1 homolog 2, RRM domain, GST-SBP tag (RBFOX2, Homo sapiens, UniProt O43251-10, residues 100-194)
Method: RNA Bind-n-Seq
Molecule type: RNA
Medium: in vitro
Tested at: 365 nM
Notes: natural RNA segment, single round, ends assumed
Baseline: no-protein control
Reading: higher = stronger binding
Shared flanks, not repeated: GGGAGUUCUACAGUCCGACGAUC … UGGAAUUCUCGGGUGCCAA
Construct (chain): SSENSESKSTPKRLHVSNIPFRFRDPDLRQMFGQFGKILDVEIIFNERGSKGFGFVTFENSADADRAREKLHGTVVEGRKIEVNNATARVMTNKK
Strand	RBNS enrichment (R)
GCCCACUGAAGCAGAAGGUUUUUCUCUGGGGGAACCUGUCUCAGUGUUGACUGCAUUGUUGUAGUCUUCCCAAAGUUUGCCCUAUUUUUAAAUUCAUUAUUUUUGUGACA	0.611
AGCUUACCUCUGCGAACUUCUAUCUGGUAUUGAAUCAGUUUCAGAAACACAGACAGAUCCAAGGAAAUGUCUCUUUAUAAUGUUCUUAGGAUGGACUAGACCCAUAAAUG	0.444
CAAAUAGCGACAUUUCCAGUUUCUCUUAAAAACCGUGUUUGGUUUCAGUUGGGAUAGGCUUGUUUUGUCUGUUGAAAAUGUUUCUAGUUUUUUUUCUUUCAUUUUUCUCU	0.546
GUAGCUGAAUAAGGGGUCAGAACUUCUGAAACCAGAGAUCUGUAAUCAUCUCUAUUGGCCUGGGGUGCCUGUGCUAUAAAUGAGUUUCUUCACAUGAAAAACACAGCCAG	0.224
AAAAUUCCUAGAUCCUAGGAAUUCAGUGAGACCCUGGGAAGGACCAGCAUGCUAAUCAGUGUCAGUGAAUCCACAGUCUUUACUUCCUGCCUCAUAAAGGGCCAGGUCUC	7.14
UGCCCACACAACAGUCUGAGCAAGAGACCUGCAGCCCCUGUUUCGUGGCAGACAGCAGGUGCCUGGCGGUGACCCACGGGGCUCCUGGCUUGCAGCUGGUGAUGGUCAAG	0.426
UGGGGCCCUGGGGUGGGGUAGGCAGAUGGGCCAAGGUGACCACCAUUCUGCCUCAAUCUUUUGCAAGCCCACCUGCCUCUCUCCUGCUGCUCCUCCAGCUGUAUCUGCAC	0.332
AAGGACCUUCACUCUAAGAUGUUAUAUUUUUCUUAAAAAGUAACUCCUAGUAGGGGUACCACUGAAUCUGUACAGAGCCGUAAAAACUGAAGUUCUGCCUCUGAUGUAUU	0.265

Set 4
Target: RING finger protein unkempt homolog, zinc fingers 1-6, GST-SBP tag (UNK, Homo sapiens, UniProt Q9C0B0, residues 30-357)
UniProt Q9C0B0, sequence (30-357, looked up): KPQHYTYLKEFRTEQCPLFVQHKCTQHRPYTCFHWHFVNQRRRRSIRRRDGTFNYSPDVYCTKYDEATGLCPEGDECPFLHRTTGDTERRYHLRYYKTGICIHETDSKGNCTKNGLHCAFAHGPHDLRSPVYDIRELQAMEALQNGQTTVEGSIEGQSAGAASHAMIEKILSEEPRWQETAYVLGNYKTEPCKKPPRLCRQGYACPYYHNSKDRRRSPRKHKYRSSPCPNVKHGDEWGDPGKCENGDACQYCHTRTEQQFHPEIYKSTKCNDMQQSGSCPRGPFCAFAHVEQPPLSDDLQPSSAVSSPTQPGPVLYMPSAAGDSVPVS
Method: RNA Bind-n-Seq
Molecule type: RNA
Medium: in vitro
Tested at: not given
Notes: RNA with constant flanks, ends assumed
Baseline: input RNA pool
Reading: higher = stronger binding
Shared flanks, not repeated: GGGAGUUCUACAGUCCGACGAUC … CAACAGAGGAUUGAGCAUCA
Strand	bound/input enrichment [ratio]
GUAUAUCAAGGAGUGAAGAAAGAUGGCUUUUUACAACCUCAUUUUUUGGCAGAACAGGAUACCGUUAUCAUUACCUAUGAUGUACUGCGUUCAGAAUUAAAUUAUGUCGAUAUCCCACAU	0.13
UUAGUACCAAGAUGUUCUUUUUUCAUUAUCAGUCUUUCAGAUGUCUAUUUUCUUGCUGAACCGCAGAGGACUUUAUUUCCACCUCCCUAUAAAGUGUGAGCACUGUGUUUCAGCGAGCUG	1.65
CCGCGGCUUGCCGGAAGUGGGCAGGGCGGCAGCGGCUGCUCUUGGCGGCCCCGAGGUGACUACCGCCUUCUUUUGUGUCUUGAUAGUUCGCCAUGGAUGACGAUAUCGCUGCGCUGGUCG	0.122
UGGGGCUCAUCUAAACUAGUUCCAGUGGGAUACGGAAUUAAGAAACUUCAAAUACAGUGUGCCGUUGAAGAUGAUAAAGUUGGAACAGAUAUGCUGGAGGAGCAGAUCACUGCUUUUGAG	0.114
AGCAAAAAGAACAAUAUAUUUGCUCAGUUCAGGAAGAAUGAUCGAGACAAACAGAAGUUGACCGAGACAGUCGUGAAACAGCUGAGAAGUUUGGUGAAUGGUAUGUCCCAGCACAUGUAG	0.248
CAGCCAGCAAACUUGAUAGUGCUUUUGGUCCUAGAUGAUUUUUAUCAAAUAAGUGGAUUGAUCCGUUAAGUUCAGGUAAUGUUUAUGUAAUGAAAAACAAAUAGCAUCCUUCUUGUUUCA	0.577
UCUCUUUAUCCUCAGUUUAUGUUUCAUUUAAGAAGAUCUCCUUUCUUGCAAGUUUUUAACAACCGUCCUGAUGAGAGUUCAUACUAUCGUCACCAUUUCAUGCGUCAGGAUCUGACCCAG	0.397
GCGAACAGCCAUUAGGAAGAAUGCUGAGUGCUCCGGCGUGAGUCGUGACUUCUGAUGACCCCGCAAAUAAUGCCACACACUGCAAUACUGUGAAGACACUCGCAAGGAUACAGCAGUGAU	0.177

Excerpt of the above (set 3):
Strand	RBNS enrichment (R)
GUAGCUGAAUAAGGGGUCAGAACUUCUGAAACCAGAGAUCUGUAAUCAUCUCUAUUGGCCUGGGGUGCCUGUGCUAUAAAUGAGUUUCUUCACAUGAAAAACACAGCCAG	0.224
AAAAUUCCUAGAUCCUAGGAAUUCAGUGAGACCCUGGGAAGGACCAGCAUGCUAAUCAGUGUCAGUGAAUCCACAGUCUUUACUUCCUGCCUCAUAAAGGGCCAGGUCUC	7.14
GCCCACUGAAGCAGAAGGUUUUUCUCUGGGGGAACCUGUCUCAGUGUUGACUGCAUUGUUGUAGUCUUCCCAAAGUUUGCCCUAUUUUUAAAUUCAUUAUUUUUGUGACA	0.611
UGCCCACACAACAGUCUGAGCAAGAGACCUGCAGCCCCUGUUUCGUGGCAGACAGCAGGUGCCUGGCGGUGACCCACGGGGCUCCUGGCUUGCAGCUGGUGAUGGUCAAG	0.426
AAGGACCUUCACUCUAAGAUGUUAUAUUUUUCUUAAAAAGUAACUCCUAGUAGGGGUACCACUGAAUCUGUACAGAGCCGUAAAAACUGAAGUUCUGCCUCUGAUGUAUU	0.265
